Measurements collected from several papers.
Each line is one published result; not all experiments were run side by side. Numbers after ± are the reported error.

SMILES	test	system	conditions	measurement	result
[3H]c1sc(C)nc1C=C(C)C1CC2C(CCCC(C)C(O)C(C)C(=O)C(C)(C)C(O)CC(=O)O1)N2CCO (stereo not drawn)	LC-MS/MS	CD2F1 mice tumour-bearing, kidney	intravenous, 2.2 nmol/kg, 6 h	tissue concentration	2630 ± 130 ng/g
NC(=O)[C@@H](CCCCNC(=O)CNC(=O)CCC(=O)NCCc1c[nH]cn1)NC(=O)[C@@H](Cc1ccc(O)cc1)NC(=O)[C@@H](CCCCNC(=O)CNC(=O)CCC(=O)NCCc1c[nH]cn1)NC(=O)Cc1ccc(CN2CCN(CC(=O)O)CCN(CC(=O)O)CC2)cc1 [fluorine-18 labelled]	–	tumour-bearing nude mice, kidney	intravenous, 1.04 MBq, 1 h, no pretargeting	tissue uptake	3.33 ± 0.56 %ID/g
COc1ccc(C)cc1NC(=O)OC1CC2CCCC(C1)N2Cc1ccc(CC[18F])cc1 (stereo not drawn)	–	BALB/c mice, EMT6 tumour, lung	30 min	tissue uptake	16.3 ± 1.14 %ID/g
C/C=C/C=C/C/C=C/CCCCCCCc1cccc(O)c1O	–	female Kunming mice, tumour-bearing, liver	intravenous, 10 mg/kg, 2 h	tissue concentration	22800 ± 2650 ng/g
CCCC[C@H](NC(=O)CN1CCC(NC(=O)CN2CCC(NC(=O)CN3CCN(CC(=O)O)CCN(CC(=O)O)CCN(CC(=O)O)CC3)CC2)CC1)C(=O)N[C@H]1CC(=O)NCCCC[C@@H](C(N)=O)NC(=O)[C@H](Cc2c[nH]c3ccccc23)NC(=O)[C@H](CCCNC(=N)N)NC(=O)[C@@H](Cc2ccccc2)NC(=O)[C@H](Cc2c[nH]cn2)NC1=O [gallium-68 labelled]	–	C57BL/6J mice male B16-F10 tumour, thyroid	1 h post injection, unblocked	tissue uptake	0.7 ± 0.3 %ID/g
COC(=O)C[C@](O)(CCCC(C)(C)OC(C)=O)C(=O)O[C@@H]1C(OC)=C[C@]23CCCN2CCc2cc4c(cc2[C@H]13)OCO4	–	CD1 mice, esophagus	oral, 1 mg/kg, 2 h	tissue concentration	not detected
COc1cc(C(=O)NCCOCCOCCOCCNC(=O)c2ccc([18F])nc2)ccc1NC(=O)C1NC(CC(C)(C)C)C(C#N)(c2ccc(Cl)cc2F)C1c1cccc(Cl)c1F (stereo not drawn)	–	athymic male mice, SJSA-1 xenograft, small intestine	2 h	tissue uptake	1.39 ± 0.83 %ID/g
C[C@]12CC[C@H](OCC[18F])C[C@H]1CC[C@@H]1[C@@H]2CC[C@]2(C)[C@@H](c3ccc(=O)oc3)CC[C@]12O	micro-PET	BALB/c nude mice, SMMC-7721 xenograft, bladder	intravenous, 7.4 MBq, 120 min	tissue uptake	33.1 ± 5.81 %ID/g
CCCC[C@H](NC(=O)CCOCCOCCNC(=O)CN1CCN(CC(=O)O)CCN(CC(=O)O)CCN(CC(=O)O)CC1)C(=O)N[C@H]1CC(=O)NCCCC[C@@H](C(N)=O)NC(=O)[C@H](Cc2c[nH]c3ccccc23)NC(=O)[C@H](CCCNC(=N)N)NC(=O)[C@@H](Cc2ccccc2)NC(=O)[C@H](Cc2c[nH]cn2)NC1=O [gallium-68 labelled]	–	C57BL/6J mice male B16-F10 tumour, blood	1 h post injection, unblocked	tissue uptake	0.5 ± 0.2 %ID/g
